Experimental data pooled from the literature.
Each numbered part is a random draw from the data of one study; scales do not carry over between parts. Substitutions count along the parent as printed.

Sample 1 — method: RNA Bind-n-Seq; molecule type: RNA; medium: in vitro; concentration: 365 nM; baseline: no-protein control; reading: higher = stronger binding
Target: RNA binding protein fox-1 homolog 2, RRM domain, GST-SBP tag (RBFOX2, Homo sapiens, UniProt O43251-10, residues 100-194)
Notes: natural RNA segment, single round, ends assumed
Residues (chain): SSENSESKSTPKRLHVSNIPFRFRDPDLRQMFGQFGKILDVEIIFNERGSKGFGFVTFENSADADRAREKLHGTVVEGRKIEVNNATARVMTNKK
Oligonucleotide	RBNS enrichment (R)
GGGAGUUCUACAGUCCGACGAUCGCAAACACAGUUGAUUUAGGAAGUCACACAAUGACACUGAAAUCCUACAGACCAAAAUCCACUUGUCAGCAGGAGCAGCAGCCCAGGCCCAGCACCAGCGGUCUUCCGGCUGGAAUUCUCGGGUGCCAA	0.228
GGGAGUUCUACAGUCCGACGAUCUACUAUCAAAAACUAAGAACAUAGUUGAAGCAUGCUUCCUGAAAAUUAACUACAUUAGAAACUGACAUCCUUAUACUGGUCUCCCAAGUACAAAAGUAGGAAGAAGCCGUUGGAAUUCUCGGGUGCCAA	5.65
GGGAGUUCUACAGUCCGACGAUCAACCUGAGCCUUUUCUUAUAUAAGACAAGAAUAUGUUCACAUCUUGGUAUGUGGCCAUAUUUAUAGAAUGCUGAACUCAAUGUGCAAGUUGUACUGUAUGCAGUUUUGUAUGGAAUUCUCGGGUGCCAA	0.402
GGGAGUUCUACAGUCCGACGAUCUCUUCAGUGAUUUCCACAAUUGUGCAUUUUAUUCUUUGGUUUAAGUACUGAAGCAUAUAAUGAAAGUAAUUGCUAAGUAGCAGCUUAAAAAUUCAAUUAUCCGAUUGUAUUGGAAUUCUCGGGUGCCAA	0.392
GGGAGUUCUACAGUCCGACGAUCCGCUCACGCUCUCGUCCUUAGGGAGGAGCUGACUUAGCAGCCCCUCAGCCCAACCCCCUGCUUCCUGUUGGCUUUUGGGUAGCACUUGCCAUUAACAACAGCAGCCUAGAUGGAAUUCUCGGGUGCCAA	9.64
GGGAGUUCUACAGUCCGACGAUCUCCCUGUGCAGACAGGACUAUGGUCUUCUUGCCCAAAGACUUUCAUCUGGACUGUCUAUAGAGUAAAUAUGCUCUCAUGGUUCAUGCGACCCCUGGUGGCUGGAGUAAGCUGGAAUUCUCGGGUGCCAA	0.29
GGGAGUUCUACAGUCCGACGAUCACCUGCCCUCUCUCCGGAUCAUUUUUCUAGAGCAAGCAGGCCAGACUUCAUCCUGCCUUUGUCUUCGAAGCUAUCAGGGAACUGCGGGGUCCCAAAUAUGAUAAUCACGUUGGAAUUCUCGGGUGCCAA	0.399
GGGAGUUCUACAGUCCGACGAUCAGAGAUUUGAUCUCAUGCGAGUCAUCAAUAGGACAAAAAAGUUGUGGUUUGGGGAGGUCUGUUUGUUACAUAAAAAGGACCUUUCGGUGUAAGAAAUUGCCGUUUUUACCUGGAAUUCUCGGGUGCCAA	0.466

Sample 2 — target: CCNA1, cyclin fold, Cln2 fusion (human); method: yeast growth competition, sequencing; medium: yeast; notes: weak parent motif; baseline: not given; reading: higher = stronger binding
Starting sequence: PKN2 docking peptide (human); VSAVRKLDFSDTM; partner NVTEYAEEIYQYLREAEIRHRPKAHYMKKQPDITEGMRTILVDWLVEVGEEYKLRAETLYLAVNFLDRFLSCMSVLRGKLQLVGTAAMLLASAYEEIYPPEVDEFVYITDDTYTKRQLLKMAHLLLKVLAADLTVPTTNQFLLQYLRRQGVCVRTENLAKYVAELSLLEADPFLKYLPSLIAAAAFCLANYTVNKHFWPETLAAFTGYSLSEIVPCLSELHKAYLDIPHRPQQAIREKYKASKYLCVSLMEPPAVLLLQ
Change	normalised enrichment score
S10E	0.996
D8R	0.169
K6N	0.198
S2C	0.845
S2L	0.941
A3H	0.922
T12L	0.574
T12Y	0.87
F9C	0.188
L7H	0.241
K6S	0.422
T12D	0.868
F9H	0.252
D11N	0.623
S10F	0.294
T12H	0.796
R5W	0.0222
D8E	0.638
V4M	0.783
V4G	0.0511
S2M	0.56
V4W	0.391

Sample 3 — method: DHFR PCA, deep sequencing; medium: yeast; with: (+)-ABA 0.39 µM; baseline: wild-type fitted maximum; reading: higher = stronger binding
Target: ABI1, truncated, D143A, DHFR fusion (Arabidopsis thaliana)
Notes: methotrexate growth selection, single substitutions
Starting sequence: PYL1, truncated, DHFR fusion (Arabidopsis thaliana); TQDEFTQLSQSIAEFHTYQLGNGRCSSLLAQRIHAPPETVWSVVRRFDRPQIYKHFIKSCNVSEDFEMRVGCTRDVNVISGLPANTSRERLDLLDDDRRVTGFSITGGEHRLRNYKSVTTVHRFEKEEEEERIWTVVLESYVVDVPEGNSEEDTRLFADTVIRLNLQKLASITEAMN
Change	relative binding score [%]
V142W	-25.5
L112F	15.5
E131R	59.2
L91D	-5.84
V100K	-5.16
M68G	3.19
I162H	-0.356
S42T	16.5
K116D	-11.6
A30Q	22.6
L29Y	1.64
L164S	28
L28E	1.38
D97T	49.7
P83H	8.05
Q10M	25.6
E67Y	7.89
S9P	4.05
G148R	0.96
P37K	-10.1
S9M	36.1
V145C	-14.5
L156E	-0.0821
D65F	6.19
C72L	-1.35

Sample 4 — target: NFE2, bZIP domain (human); method: DHFR protein complementation; medium: yeast; baseline: wild-type JUN-FOS pair; reading: higher = stronger binding
Notes: single substitutions, most at no-binding floor
Starting sequence: JUN, bZIP domain (human); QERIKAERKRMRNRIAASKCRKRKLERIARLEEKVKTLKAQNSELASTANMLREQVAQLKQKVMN; partner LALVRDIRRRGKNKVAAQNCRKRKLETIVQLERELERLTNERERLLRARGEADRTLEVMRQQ
Change	binding fitness
T37S	-1.46 natural log
V56C	-1.43 natural log
E33L	-1.42 natural log
R30A	-1.31 natural log
L52Q	-1.52 natural log
M51T	-1.43 natural log
K36W	-1.48 natural log
A57H	-1.53 natural log
E54R	-1.5 natural log
E44F	-1.5 natural log
Q58T	-1.4 natural log
L31I	-1.26 natural log
V56H	-1.52 natural log
E33D	-1.54 natural log
E54M	-1.5 natural log
A49E	-1.47 natural log
E32V	-1.31 natural log
K39R	-1.41 natural log
E33M	-1.5 natural log
R30L	-1.41 natural log
T48E	-1.39 natural log
K39N	-1.41 natural log
L38V	-1.28 natural log
E44S	-1.51 natural log
E44Q	-1.45 natural log
